Experimental data of several laboratories.
Each line is one published result; not all experiments were run side by side. Numbers after ± are the reported error.

With `C[C@H](CCC(=O)O)[C@H]1CC[C@H]2[C@@H]3CC[C@@H]4C[C@H](O)CC[C@]4(C)[C@H]3C[C@H](O)[C@]12C` the EC50 was 0.00045 µM (Caco-2 (undifferentiated); FGF19 secretion, agonist, ELISA).
For `CCn1cc(-c2cc(Cn3ccnc3)cc3c2CCN([C@H](c2cc(OC)ccn2)C2CC2)C3=O)c(C(F)(F)F)n1`, the EC50 was 19.1 µM (NCI-H292; cell growth, inhibitor; 120 h).
For `[Cl-].[Cl-].[Ru+2].c1cnc2c(c1)ccc1cccnc12.c1cnc2c(c1)ccc1cccnc12.c1csc(-c2ccc(-c3ccc(-c4ccc(-c5nc6c7cccnc7c7ncccc7c6[nH]5)s4)s3)s2)c1`, the EC50 was 84 µM (SK-MEL-28; resazurin viability; dark, normoxia).
`CC[C@H](C)[C@H](NC(=O)[C@H](CCCNC(=N)N)NC(=O)[C@H](CCCNC(=N)N)NC(=O)[C@H](CC(C)C)NC(=O)CNC(=O)[C@H](CCC(N)=O)NC(=O)[C@@H](NC(=O)[C@@H](NC(=O)[C@H](Cc1c[nH]c2ccccc12)NC(=O)[C@@H](NC(=O)[C@H](CCC(=O)O)NC(=O)[C@@H]1CCCN1C(=O)[C@@H](N)CCCNC(=N)N)[C@@H](C)CC)[C@@H](C)CC)[C@@H](C)O)C(=O)NCC(=O)N[C@@H](CC(=O)O)C(=O)N[C@@H](CCC(=O)O)C(=O)N[C@@H](Cc1ccccc1)C(=O)N[C@@H](CC(N)=O)C(=O)N[C@@H](C)C(=O)N[C@@H](Cc1ccc(O)cc1)C(=O)N[C@@H](Cc1ccc(O)cc1)C(=O)N[C@@H](C)C(=O)N[C@@H](CCCNC(=N)N)C(N)=O` gave an EC50 of 11 ± 5 µM (cells, 2924 murine, Myc/Bcl-2, Bcl-2 dependent; mitochondrial depolarization, BH3 profiling with JC-1; 3 h).
The EC50 of `[Cl-].[Cl-].[Ru+2].c1cnc2c(c1)ccc1cccnc12.c1cnc2c(c1)ccc1cccnc12.c1csc(-c2ccc(-c3ccc(-c4nc5c6cccnc6c6ncccc6c5[nH]4)s3)s2)c1` is reported as 0.064 µM (SK-MEL-28; photocytotoxicity, resazurin; visible light, normoxia).
With `CCCC[C@@H]1NC(=O)[C@H](Cc2ccc(O)cc2)NC(=O)[C@@H]2CCCN2C(=O)[C@H](CC(=O)O)NC(=O)[C@H](C)NC(=O)[C@H](Cc2ccccc2)NC(=O)[C@@H]2CSCCC(=O)N3CN(CN(C3)C(=O)CCSC[C@@H](C(=O)N[C@@H](CNC(=O)CCOCCOCCOCCOCCOCCOCCOCCOCCOCCOCCOCCOCCn3cc(CCC(=O)NCCC(=O)N(C)CC(=O)N(C)CC(=O)N(C)CC(=O)N(C)CC(=O)N(C)CC(=O)N(C)CC(=O)N(C)CC(=O)N(C)CC(=O)N(C)CC(=O)N(C)CC(=O)N[C@H]4CSCCC(=O)N5CN6CN(C5)C(=O)CCSC[C@H](NC(=O)[C@@H](CC(=O)O)NC(=O)[C@H](Cc5cccc7ccccc57)NC(=O)[C@@H]5CCCN5C4=O)C(=O)N[C@@H](CCSC)C(=O)N[C@@H](CCCCNC(=N)N)C(=O)N[C@@H](CC(=O)O)C(=O)N[C@@H](Cc4c[nH]c5ccccc45)C(=O)N[C@@H](CO)C(=O)N[C@@H]([C@@H](C)O)C(=O)N4CCC[C@H]4C(=O)N4C[C@H](O)C[C@H]4C(=O)N[C@@H](Cc4c[nH]c5ccccc45)C(=O)N[C@H](C(N)=O)CSCCC6=O)nn3)C(N)=O)NC1=O)C(=O)CCSC[C@H](NC(C)=O)C(=O)N[C@@H](CC(C)(C)C)C(=O)N1CCC[C@H]1C(=O)N[C@@H](CCC(=O)O)C(=O)N[C@H](C)C(=O)N1CCC[C@H]1C(=O)N[C@@H](Cc1ccc(O)cc1)C(=O)N2` the EC50 was 0.00069 µM (human PBMC with HT-1376 coculture; IL-2 secretion; with: anti-CD3).
`CCn1c(=O)/c(=C2\Sc3cc(Cl)ccc3N2C)s/c1=C\c1scc[n+]1Cc1ccccc1` has an EC50 of 20.8 µM (iPSC-derived cardiomyocytes; concentration-response curve, item: MyBP-C protein level; 24 h).
For `CCCC[C@@H]1NC(=O)[C@H](Cc2ccc(O)cc2)NC(=O)[C@@H]2CCCN2C(=O)[C@H](CC(=O)O)NC(=O)[C@H](C)NC(=O)[C@H](Cc2ccccc2)NC(=O)[C@@H]2CSCCC(=O)N3CN(CN(C3)C(=O)CCSC[C@@H](C(=O)N[C@@H](C)C(N)=O)NC1=O)C(=O)CCSC[C@H](NC(C)=O)C(=O)N[C@@H](CC(C)(C)C)C(=O)N1CCC[C@H]1C(=O)N[C@@H](CCC(=O)O)C(=O)N[C@H](CCCCNC(=O)CCc1cn(CCOCCOCCOCCOCCOCCC(=O)N[C@H]3CSCCC(=O)N4CN5CN(C4)C(=O)CCSC[C@H](NC(=O)[C@@H](CC(=O)O)NC(=O)[C@H](Cc4cccc6ccccc46)NC(=O)[C@@H]4CCCN4C3=O)C(=O)N[C@@H](CCSC)C(=O)N[C@@H](CCCCNC(=N)N)C(=O)N[C@@H](CC(=O)O)C(=O)N[C@@H](Cc3c[nH]c4ccccc34)C(=O)N[C@@H](CO)C(=O)N[C@@H]([C@@H](C)O)C(=O)N3CCC[C@H]3C(=O)N3C[C@H](O)C[C@H]3C(=O)N[C@@H](Cc3c[nH]c4ccccc34)C(=O)N[C@H](C(N)=O)CSCCC5=O)nn1)C(=O)N1CCC[C@H]1C(=O)N[C@@H](Cc1ccc(O)cc1)C(=O)N2`, the EC50 was 0.0016 µM (human PBMC with HT-1376 coculture; IL-2 secretion; with: anti-CD3).
For `C[C@]12CCCN1CC1=NNC(=O)c3cc(F)cc4[nH]c2c1c34`, the EC50 was > 3 µM (SW948 colorectal cancer cells; cell viability; concentration not given, with: with temozolomide).
`O=C(NN=Cc1ccccc1)C1CC(=O)N(c2ccc(F)cc2F)C1` (stereo not shown) gave an EC50 of > 500 µM (human foreskin fibroblasts CRL-4001; cell viability, MTT; 72 h).
The EC50 of `CC(C)NCC(O)c1ccc(O)c(O)c1` (stereo not shown) is reported as 0.0449 µM (primary mouse white abdominal adipocytes; lipolysis, item: glycerol release; 60 min).
The EC50 of `CCn1cc(-c2cc(Cn3ccoc3=N)cc3c2CCN([C@@H](C)c2cc(OC)ccn2)C3=O)c(C(F)(F)F)n1` is reported as 0.0288 µM (NCI-H292; cell growth, inhibitor; 120 h).
With `NC(=O)c1ccc(I)c([N+](=O)[O-])c1` the viability was 161% (OCI-Ly1; 1 µM, 120 h).
The EC50 of `CCn1c(=Cc2cccc[n+]2C)sc(=C2Sc3ccccc3N2C)c1=O` is reported as > 50 µM (iPSC-derived cardiomyocytes; concentration-response curve, item: MyBP-C protein level).
`COc1cnc2cccc(N3CCc4c(cc(Cn5ccnc5C)cc4-c4cn(C)nc4C(F)(F)F)C3=O)c2c1` gave an EC50 of > 30 µM (KG-1; cell growth, inhibitor; 120 h).
With `Cc1nn(-c2nc3c(F)cc(F)cc3s2)c(O)c1C(c1ccc(C(F)(F)F)cc1)c1c(C)nn(-c2nc3c(F)cc(F)cc3s2)c1O` the EC50 was 12.6 µM (THP1-Dual; IFN reporter gene, inhibitor, luciferase reporter; with: HT-DNA).
With `C[n+]1cc2c3c(ccc2c2ccc4cc5c(cc4c21)OCO5)OCO3` the EC50 was 7.2 µM (iPSC-derived cardiomyocytes; concentration-response curve, item: MyBP-C/MYH ratio; 24 h).
The EC50 of `O=C(NN=Cc1ccc([N+](=O)[O-])s1)C1CC(=O)N(c2ccc(F)cc2F)C1` (stereo not shown) is reported as 10.6 ± 2.1 µM (human foreskin fibroblasts CRL-4001; cell viability, MTT; 72 h).
The EC50 of `CN(C)c1ccc(C(=C2C=CC(=[N+](C)C)C=C2)c2ccc(N(C)C)cc2)cc1` is reported as 14.6 µM (iPSC-derived cardiomyocytes; concentration-response curve, item: MyBP-C/MYH ratio; 24 h).
With `[Cl][Ru][Cl].c1cnc2c(c1)ccc1cccnc12.c1cnc2c(c1)ccc1cccnc12.c1cnc2c(c1)ccc1cccnc12` the EC50 was > 300 µM (SK-MEL-28; resazurin viability; dark, normoxia).
`CCCCCCCCCc1ccc(OCCOCCOCCOCCOCCOCCOCCOCCOCCO)cc1` has an EC50 of 24.4 µM (iPSC-derived cardiomyocytes; concentration-response curve, item: MyBP-C protein level; 24 h).
For `CCCCCCCCCCCCCCCc1cccc(O)c1C(=O)O`, the viability was 177% (OCI-Ly1; 0.1 µM, 120 h).
With `C=C1C(=O)O[C@H]2[C@H]1CC/C(C)=C/CC[C@@]1(C)O[C@@H]21` the EC50 was 6.6 µM (iPSC-derived cardiomyocytes; concentration-response curve, item: MyBP-C protein level; 24 h).
With `CC1(C)CCC(c2ccc(Cl)cc2)=C(CN2CCN(c3ccc(C(=O)NS(=O)(=O)c4ccc(N[C@H](CCN5CCOCC5)CSc5ccccc5)c(S(=O)(=O)C(F)(F)F)c4)cc3)CC2)C1` the EC50 was 0.65 µM (canine nodal B-cell lymphoma cells; cell killing; 24 h).
For `COc1cc(/C=C/c2ccc(O)cc2)cc(OC)c1`, the EC50 was 16.8 µM (iPSC-derived cardiomyocytes; concentration-response curve, item: MyBP-C/MYH ratio; 24 h).
With `Cc1cc(Nc2ncc(Cl)c(Nc3ccccc3S(=O)(=O)C(C)C)n2)c(OC(C)C)cc1C1CCNCC1` the EC50 was 6.8 µM (iPSC-derived neurons, 2-week differentiating; metabolic activity, CellTiter-Blue; 24 h).
`CC(C)NCCCn1c(Sc2cc3c(cc2I)OCO3)nc2c(N)ncnc21` has an EC50 of 1.3 µM (iPSC-derived cardiomyocytes; concentration-response curve, item: MyBP-C/MYH ratio; 24 h).
`CCN(N=Cc1ccc(Br)cc1)C(=O)C1CC(=O)N(c2ccc(F)cc2F)C1` (stereo not shown) has an EC50 of 91.7 ± 14.3 µM (human foreskin fibroblasts CRL-4001; cell viability, MTT; 72 h).

Excerpt of the above:
With `Cc1nn(-c2nc3c(F)cc(F)cc3s2)c(O)c1C(c1ccc(C(F)(F)F)cc1)c1c(C)nn(-c2nc3c(F)cc(F)cc3s2)c1O` the EC50 was 12.6 µM (THP1-Dual; IFN reporter gene, inhibitor, luciferase reporter; with: HT-DNA).
